# Measurements gathered from unrelated publications.
# A part holds a random share of what one study measured.

# Sample 1
# Target: Replicase polyprotein 1ab, polymerase (rep, Severe acute respiratory syndrome coronavirus 2, UniProt P0DTD1)
# Effect on: enzyme activity
# Mode: inhibitor
# Concentration: 20 µM
Compound,inhibition
CCNC1(C(N)=O)CCN(c2ncnc3c2nc(-c2ccccc2Cl)n3-c2ccc(Cl)cc2)CC1,0.63%
NC(=Nc1ccccc1)Nc1ccccc1,7.67%
C=C[C@H]1CN2CC[C@H]1C[C@H]2[C@H](OC(=O)OCC)c1ccnc2ccc(OC)cc12,0.78%
NC(=O)OCC(COC(N)=O)c1ccccc1,-5.21%
CC(C)(C)CCN1C[C@@H]2C(CNC(=O)c3cc(Cl)cc(Cl)c3)[C@@H]2C1 (some centres unmarked),-1.45%
CCNC(=O)Nc1ccc(-c2nc3c(c(N4CCOC[C@@H]4C)n2)CCN(C2COC2)C3)cc1,4.11%
OC(CCN1CCCCC1)(c1ccccc1)C1CCCCC1 (centres unmarked),3.02%
CCN(CC)CCCN(c1ccccc1)C1Cc2ccccc2C1,-1.78%
CN1CCC(COc2cnc(-c3cccc(Cn4nc(-c5cccc(C#N)c5)ccc4=O)c3)nc2)CC1,0.97%
COc1cc2c(cc1OC)[C@@]13CCN4CC5=CCO[C@H]6CC(=O)N2[C@H]1[C@H]6[C@H]5C[C@H]43,3.51%
C#CCN[C@@H]1CCc2ccccc21,-3.38%
C[C@@]12N[C@@H](Cc3ccccc31)c1ccccc12,0.98%
Cc1cn(-c2cc(NC(=O)c3ccc(C)c(Nc4nccc(-c5cccnc5)n4)c3)cc(C(F)(F)F)c2)cn1,-6.71%
O=c1ncccn1[C@@H]1O[C@H](CO)[C@@H](O)[C@H]1O,2.37%
OC(Cc1ccncc1)C(Cl)(Cl)Cl (centres unmarked),5%
CCCCCN(C)CCC(O)(P(=O)(O)O)P(=O)(O)O,-10.5%
CC(C)(C)Cn1c(N)nc2ccc(-c3[nH]c(C(C)(C)C)nc3-c3ccc(F)cc3)nc21,-8.83%
COc1ccc2c(c1)c(CC(=O)N1CCOCC1)c(C)n2C(=O)c1ccc(Cl)cc1,-2.18%
C#C[C@]1(O)CC[C@H]2[C@@H]3CCC4=CC(=O)CCC4=C3C=C[C@@]21CC,4.62%
CCCCNc1nc(N)c2[nH]c(=O)n(Cc3ccc(OCCN(C)C)nc3)c2n1,-10.9%
Cc1nc2c(O)cccc2c(=O)[nH]1,-4.52%
C[C@]12CC[C@H](O)CC1=CC[C@@H]1[C@@H]2CC[C@]2(C)C(c3cccnc3)=CC[C@@H]12,-6.64%
CCCCOCCOc1nc(-c2ccc(C(=O)O)c(F)c2)sc1C,-0.35%
OCc1ccc(-c2ccc(-c3ccc(CO)s3)o2)s1,-1.1%
COC(=O)C1=C(C)N(C)C(C)=C(C(=O)OC)C1c1ccc(C(F)(F)F)cc1,0.63%

# Sample 2
# Target: Replicase polyprotein 1ab, main protease (rep, Severe acute respiratory syndrome coronavirus 2, UniProt P0DTD1)
# Effect on: enzyme activity
# Mode: inhibitor
# Concentration: 20 µM
# Notes: primary screen
SMILES,inhibition
CCc1ccc(/C=C/C(=O)Nc2ccc(C(C)=O)cc2)o1,57.1%
CC(=O)OC/C=C(C)/C=C/C=C(C)/C=C/C1=C(C)CCCC1(C)C,22.9%
Nc1nc(-c2ccc(Cl)c(Cl)c2)c(-c2ccncc2)s1,46.8%
C[C@@H](CN1CC(=O)NC(=O)C1)N1CC(=O)NC(=O)C1,89%

# Sample 3
# Target: RING finger protein unkempt homolog, zinc fingers 1-6, GST-SBP tag (UNK, Homo sapiens, UniProt Q9C0B0, residues 30-357)
# Chain of UniProt Q9C0B0 (30-357, looked up): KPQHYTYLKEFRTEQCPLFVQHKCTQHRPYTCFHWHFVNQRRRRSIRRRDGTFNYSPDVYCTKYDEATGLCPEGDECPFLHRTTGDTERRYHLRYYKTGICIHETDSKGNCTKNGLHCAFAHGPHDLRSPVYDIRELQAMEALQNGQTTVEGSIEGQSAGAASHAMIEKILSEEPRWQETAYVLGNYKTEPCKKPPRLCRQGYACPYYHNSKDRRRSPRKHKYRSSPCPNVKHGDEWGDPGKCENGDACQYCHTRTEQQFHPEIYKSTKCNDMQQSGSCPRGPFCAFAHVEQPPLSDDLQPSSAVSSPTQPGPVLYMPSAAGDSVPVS
# Method: RNA Bind-n-Seq
# Form: RNA
# Sample: in vitro
# Concentration: not given
# Notes: RNA with constant flanks, human and mouse sites, ends assumed
# Relative to: input RNA pool
# Reading: higher = stronger binding
Sequence,bound/input enrichment [ratio]
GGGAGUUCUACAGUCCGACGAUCUUUAUUGAUCAGGUCUGUAAAUGUGUACUGAAAAAAAUCAGAGUUUAUUUAUAAAUAGAAUAGUUUAUUUAAAGAGGUAUUUUCCUCCUUGAUAUCAUGGUAUGCAUAAUUCUGUGUGUUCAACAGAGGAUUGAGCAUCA,5.36
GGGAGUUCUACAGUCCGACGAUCCCUUCCUUUCUGGCCAGUUCACCAAAAGGCAAAGGCUAUAAUAGGAGGUUAGCGCUUAGCUGGCUUUGGAAGUAAGUCUUUAUUAGUUUUCUGAGGGAGAUCAGAGAUGCACAGCUGGACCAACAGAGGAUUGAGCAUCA,0.595
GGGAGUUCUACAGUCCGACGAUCGCCACCAGAUCCCAGAAACAUGACCCUUGCUGCCUACAAAGAGAAGAUGAAGGAGCUCCCGCUGGUGUCCUUGUUCUGCUCCUGCUUCCUGGCCGAUCCCCUGAAUAAGUCGUCCUACAACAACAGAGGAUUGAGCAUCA,0.335
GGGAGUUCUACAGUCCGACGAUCGAACCUUGGGUGAUUUGUUCUGUAUCAGAAGACAAUAUCAUGCAAGUGUGGCAAAUGGAGUUAGUCCUUGACCACUAGUUUGAUGCCAUCUCCAUUUUGGGUGACCUGUUUCACCAGCAGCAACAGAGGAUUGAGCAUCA,0.558
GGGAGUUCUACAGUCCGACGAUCCCUGAGCUAAAAUACCCAAAAGGAGCUGGGAGAGUUGCGUUCUCUAAUCAACAGAGUUACAUAGCUGCUAUCAGUGCCCGCUUUGUUCAGCUGCAGCAUGGAGAGAUAGAUAAACGGGUGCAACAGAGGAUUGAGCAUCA,0.295
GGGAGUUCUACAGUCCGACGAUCCUCAGGGCAGCAGAUGGAUUUUUGUUUGUCGUAGGAUGUGACCGAGGGAAGAUACUCUUUGUCUCAGAGUCUGUCUUCAAGAUCCUCAACUACAGCCAGAAUGAUCUGAUUGGUCAGAGUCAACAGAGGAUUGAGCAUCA,0.121
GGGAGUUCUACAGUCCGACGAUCUGCCUGGCGCAGGUGUUGCAGAAGGAUGUGGGGAAACGAUUGCAGGUUGGCCAAGAACUGAUAGACUAUUUCUCAGACAAACAGAAGUCUGCUGACCUUGAGCAUGACCAGACCAUGUUACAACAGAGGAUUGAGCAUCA,0.245
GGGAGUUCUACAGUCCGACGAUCUUGUAGUCCUAAAAAGAUUUUUUUUUUUUAAAAUAAAGUCCAUCCUUGCAUUUAGGUUUUAUAGAUCAGUCUUUUUAUUCCCACCCCUCCCCCAGUCGCAUUGAUCCCUAAUGGUGUGCUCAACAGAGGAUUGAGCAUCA,3.7

# Sample 4
# Cell line: HEK-293T
# Effect on: pseudovirus infection
# Method: FDA-approved drug library screen
# Organism: VSV pseudotyped with SARS-CoV-2 spike
# Concentration: 10 µM
# Time: 16 h
# Relative to: vehicle-treated
Compound,GFP-positive cells
CC(C)C(=O)Nc1ccc([N+](=O)[O-])c(C(F)(F)F)c1,150%
O=C(NC[C@H]1CN(c2ccc(N3CCOCC3=O)cc2)C(=O)O1)c1ccc(Cl)s1,85.7%
CCOc1ccccc1OCCN[C@H](C)Cc1ccc(OC)c(S(N)(=O)=O)c1,105%
CCOC(=O)c1cncn1[C@H](C)c1ccccc1,79.3%
CCOC(=O)[C@H](CCc1ccccc1)N[C@@H](C)C(=O)N1CCC[C@H]1C(=O)O,100%

# Sample 5
# Target: Interferon regulatory factor 7, full length, phosphomimetic (IRF7, Homo sapiens, UniProt Q92985, residues 1-503, S101K/S471D/S472D/S475D/S476D/S477D/S483D/S484D/S487D)
# Chain of UniProt Q92985 (whole entry, unmodified, looked up): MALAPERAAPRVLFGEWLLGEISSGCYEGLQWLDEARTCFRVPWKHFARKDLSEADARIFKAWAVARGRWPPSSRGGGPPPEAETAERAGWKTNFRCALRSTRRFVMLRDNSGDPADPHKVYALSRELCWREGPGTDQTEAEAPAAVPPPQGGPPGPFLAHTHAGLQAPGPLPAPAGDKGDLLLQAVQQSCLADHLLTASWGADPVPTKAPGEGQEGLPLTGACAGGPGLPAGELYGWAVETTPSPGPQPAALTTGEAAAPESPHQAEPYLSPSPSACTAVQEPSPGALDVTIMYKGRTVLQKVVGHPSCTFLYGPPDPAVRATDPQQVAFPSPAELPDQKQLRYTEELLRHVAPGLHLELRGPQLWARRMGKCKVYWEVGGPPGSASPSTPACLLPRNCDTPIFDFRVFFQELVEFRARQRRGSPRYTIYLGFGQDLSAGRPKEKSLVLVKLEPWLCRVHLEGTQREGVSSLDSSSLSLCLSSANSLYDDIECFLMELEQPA
# Method: protein-binding microarray
# Form: double-stranded DNA, one strand shown
# Sample: in vitro
# Concentration: 250 nM
# Notes: 60-bp whole probe
# With: salmon DNA 0.4 mg/ml
# Relative to: random background probes
# Reading: higher = stronger binding
# Shared flanks, not repeated: GCCTAGCAC … GTCTTGATTCGCTTGACGCTGCTG
Sequence,log fluorescence [z-score]
TTACATTCCAGTTTCGATTAGTGCTAG,9.19
TCAGTGATAGCTCTGGTACTGTGCTAG,-0.511
TCACCACCCGCTCTGGCACTGTGCTAG,-0.49
TCACTTCTGGATCTCAGACTGTGCTAG,0.459
TTAGATTTTGGGACTGGATTAGTGCTA,0.189
GACCATATCGGGACTGGAGACGTGCTA,-0.0421
GACGAACTGAGTCTCGAGAGGTGCTAG,-0.166
CCCTAGTTGTGTCTTGCCATGTGCTAG,0.452

# For quick reference, copied from above (sample 4):
Compound,GFP-positive cells
CCOC(=O)c1cncn1[C@H](C)c1ccccc1,79.3%
CCOC(=O)[C@H](CCc1ccccc1)N[C@@H](C)C(=O)N1CCC[C@H]1C(=O)O,100%
O=C(NC[C@H]1CN(c2ccc(N3CCOCC3=O)cc2)C(=O)O1)c1ccc(Cl)s1,85.7%
